Experimental data of several laboratories.
A part holds a random share of what one study measured. Values joined by “and” are separate records of one study, mostly repeats; a detail may differ.

Study 1 — organism: Sarcocystis neurona; observed: parasite growth; tested at: 10 µM; time: 96 h; relative to: untreated
Under “log2 fold change”, `NCCc1ccccn1` is recorded as -0.18.
Under “log2 fold change”, `Oc1ccc2c3c1O[C@H]1[C@@H](O)CC[C@@]4(O)[C@@H](C2)N(CC2CCC2)CC[C@]314` is recorded as 0.23.
Under “log2 fold change”, `C[C@]12CCC(=O)C[C@@H]1CC[C@@H]1[C@@H]2CC[C@@]2(C)[C@H]1CC[C@]2(C)O` is recorded as -0.12.
Under “log2 fold change”, `CC(C)/N=c1\cc2n(-c3ccc(Cl)cc3)c3ccccc3nc-2cc1Nc1ccc(Cl)cc1` is recorded as -5.86.
`Cc1ccc(-c2nc3ccc(C)cn3c2CC(=O)N(C)C)cc1` — result for “log2 fold change”: 1.49.

Study 2 — medium: plasma
SMILES: O=C1CCC(N2Cc3c(ccc4c3OCC43CCN(Cc4ccccc4)CC3)C2=O)C(=O)N1 (stereo not shown)
male CD-1 mouse; oral, 3 mg/kg — MRT(0-t): 3.02 h.
It gave 2.11 h for MRT(0-t) (Sprague Dawley rat, male; intravenous, 1.0 mg/kg).
It gave 1.87 h and 4.16 h and 3.04 h for MRT(0-t) (ICR mouse, male; oral, 3.0 mg/kg).
For male Sprague-Dawley rat; oral, 3 mg/kg: MRT(0-t) read 3.73 h.
male CD-1 mouse; intravenous, 1 mg/kg — MRT(0-t): 1.53 h.
It gave 3.96 h for MRT(0-t) (Sprague Dawley rat, male; oral, 3.0 mg/kg).
It gave 3.41 h and 3.81 h for MRT(0-t) (rat Sprague Dawley male; oral, 3.0 mg/kg).
male Sprague-Dawley rat; intravenous, 1 mg/kg — MRT(0-t): 2.1 h.

Study 3 — cell line: HEK-293T; observed: pseudovirus infection; method: FDA-approved drug library counter-screen; organism: VSV pseudotyped with VSV-G; tested at: 10 µM; time: 16 h; relative to: vehicle-treated
With `CC(C)(Sc1cc(C(C)(C)C)c(O)c(C(C)(C)C)c1)Sc1cc(C(C)(C)C)c(O)c(C(C)(C)C)c1` the GFP-positive cells was 116%.
The GFP-positive cells of `CC(C)CC(N(C)C)C1(c2ccc(Cl)cc2)CCC1` (stereo not shown) is reported as 125%.
`CO/N=C(\C(=O)N[C@@H]1C(=O)N2C(C(=O)O)=C(C[N+]3(C)CCCC3)CS[C@H]12)c1csc(N)n1` gave a GFP-positive cells of 84.1%.
For `CC(C)/N=c1\cc2n(-c3ccc(Cl)cc3)c3ccccc3nc-2cc1Nc1ccc(Cl)cc1`, the GFP-positive cells was 123%.
For `CCOc1nc2cccc(C(=O)O)c2n1Cc1ccc(-c2ccccc2-c2nnn[nH]2)cc1`, the GFP-positive cells was 99.5%.
For `NCCCCCC(=O)O`, the GFP-positive cells was 88.7%.
With `O=C1CC[C@@]2(O)[C@H]3Cc4ccc(O)c5c4[C@@]2(CCN3CC2CC2)[C@H]1O5` the GFP-positive cells was 124%.
With `O=C(O)c1cc(-c2ccc(F)cc2F)ccc1O` the GFP-positive cells was 103%.
The GFP-positive cells of `C[C@@H](O)[C@H]1C(=O)N2C(C(=O)O)=C(SCCN=CN)C[C@H]12` is reported as 104%.
The GFP-positive cells of `CCCCCCCCCCC[C@@H](C[C@@H]1OC(=O)[C@H]1CCCCCC)OC(=O)[C@H](CC(C)C)NC=O` is reported as 104%.
For `c1ccc2[nH]c(-c3cscn3)nc2c1`, the GFP-positive cells was 76.6%.
For `N=C(N)c1ccc(OCCCCCOc2ccc(C(=N)N)cc2)cc1`, the GFP-positive cells was 83.6%.
`C[N+]1(C)CCCC(OC(=O)C(O)(c2ccccc2)c2ccccc2)C1` (stereo not shown) has a GFP-positive cells of 88.5%.
With `CC(=O)CCCCn1c(=O)c2c(ncn2C)n(C)c1=O` the GFP-positive cells was 131%.
`C/C(=C\C(=O)OCCCCCCCCC(=O)O)C[C@@H]1OC[C@H](C[C@@H]2O[C@H]2[C@@H](C)[C@H](C)O)[C@@H](O)[C@H]1O` has a GFP-positive cells of 95.5%.
`COCC(=O)Nc1c(I)c(C(=O)NCC(O)CO)c(I)c(C(=O)N(C)CC(O)CO)c1I` (stereo not shown) has a GFP-positive cells of 129%.
With `COc1cccc2c1C(=O)c1c(O)c3c(c(O)c1C2=O)C[C@@](O)(C(=O)CO)C[C@@H]3O[C@H]1C[C@H](N)[C@@H](O)[C@H](C)O1` the GFP-positive cells was 130%.

Study 4 — cell line: mouse MPNST tumor cells; method: high-content immunofluorescence imaging; measured: nuclear SOX9; tested at: 10 µM; time: 12 h; setting: mean of 2 replicates; relative to: DMSO control; direction: higher = more nuclear SOX9
For `CN(C)CCN(C)CCc1ccc(Cl)c(Cl)c1`, “nuclear SOX9 intensity” read 131 % of DMSO.
For `CC(C)(C)NCC(O)c1ccccc1Cl` (stereo not shown), “nuclear SOX9 intensity” read 95 % of DMSO.
`Cc1sc2c(c1C)C(c1ccc(Cl)cc1)=NC(CC(N)=O)c1nnc(C)n1-2` (stereo not shown): “nuclear SOX9 intensity” 125 % of DMSO.
Under “nuclear SOX9 intensity”, `COc1ccc2[nH]c(-c3ccccc3)c(CCN(C)C)c2c1` is recorded as 128 % of DMSO.

A few entries again (study 2):
It gave 2.11 h for MRT(0-t) (Sprague Dawley rat, male; intravenous, 1.0 mg/kg).
It gave 1.87 h and 4.16 h and 3.04 h for MRT(0-t) (ICR mouse, male; oral, 3.0 mg/kg).
